Published values pooled from the literature.
A part holds a random share of what one study measured. Substitutions count along the parent as printed.
Chain of UniProt P42679 (whole entry, looked up): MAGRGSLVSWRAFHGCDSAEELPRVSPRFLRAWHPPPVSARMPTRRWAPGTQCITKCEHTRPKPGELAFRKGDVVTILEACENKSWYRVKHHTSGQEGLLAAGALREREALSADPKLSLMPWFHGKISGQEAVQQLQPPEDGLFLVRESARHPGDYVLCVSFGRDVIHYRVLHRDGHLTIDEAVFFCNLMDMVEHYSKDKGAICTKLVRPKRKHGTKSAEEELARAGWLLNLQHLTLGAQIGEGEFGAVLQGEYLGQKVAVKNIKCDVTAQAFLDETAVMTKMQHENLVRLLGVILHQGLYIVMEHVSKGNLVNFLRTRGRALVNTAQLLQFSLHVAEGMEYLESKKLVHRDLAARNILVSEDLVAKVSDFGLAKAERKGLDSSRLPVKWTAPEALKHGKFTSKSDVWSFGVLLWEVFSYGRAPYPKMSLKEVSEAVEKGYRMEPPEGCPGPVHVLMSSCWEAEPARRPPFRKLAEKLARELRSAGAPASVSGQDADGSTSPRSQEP
Chain of UniProt Q9BWU1 (whole entry, looked up): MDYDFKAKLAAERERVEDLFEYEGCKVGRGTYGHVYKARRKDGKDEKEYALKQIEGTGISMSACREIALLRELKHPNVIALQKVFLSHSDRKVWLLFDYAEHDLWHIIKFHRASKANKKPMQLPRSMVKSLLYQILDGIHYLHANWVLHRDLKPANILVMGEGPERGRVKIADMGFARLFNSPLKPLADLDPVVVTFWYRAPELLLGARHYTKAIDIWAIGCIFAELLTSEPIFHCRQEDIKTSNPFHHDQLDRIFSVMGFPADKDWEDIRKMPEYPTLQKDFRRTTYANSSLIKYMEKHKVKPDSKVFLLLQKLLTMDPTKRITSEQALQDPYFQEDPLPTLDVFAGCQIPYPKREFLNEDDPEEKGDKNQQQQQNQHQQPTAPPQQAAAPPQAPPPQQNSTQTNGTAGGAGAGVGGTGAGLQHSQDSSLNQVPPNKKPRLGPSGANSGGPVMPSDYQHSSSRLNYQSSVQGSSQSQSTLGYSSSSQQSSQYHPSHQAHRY
Chain of UniProt O96013 (whole entry, looked up): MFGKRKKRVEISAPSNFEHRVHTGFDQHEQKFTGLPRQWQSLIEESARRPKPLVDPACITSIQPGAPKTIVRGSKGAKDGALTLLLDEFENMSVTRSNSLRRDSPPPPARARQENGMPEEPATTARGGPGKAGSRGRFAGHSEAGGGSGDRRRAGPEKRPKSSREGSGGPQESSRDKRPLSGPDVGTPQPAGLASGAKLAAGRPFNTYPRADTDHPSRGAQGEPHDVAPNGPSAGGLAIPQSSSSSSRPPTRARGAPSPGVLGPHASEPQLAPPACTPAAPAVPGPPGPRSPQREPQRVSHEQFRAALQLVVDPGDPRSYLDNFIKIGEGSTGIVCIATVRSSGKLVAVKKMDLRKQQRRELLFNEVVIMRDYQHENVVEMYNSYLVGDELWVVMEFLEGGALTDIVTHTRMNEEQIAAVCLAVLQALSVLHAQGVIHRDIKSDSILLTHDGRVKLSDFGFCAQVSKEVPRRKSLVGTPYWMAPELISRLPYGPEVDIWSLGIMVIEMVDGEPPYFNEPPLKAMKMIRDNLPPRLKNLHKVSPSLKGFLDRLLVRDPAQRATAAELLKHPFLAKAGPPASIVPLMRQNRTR
Chain of UniProt Q9HC98 (whole entry, looked up): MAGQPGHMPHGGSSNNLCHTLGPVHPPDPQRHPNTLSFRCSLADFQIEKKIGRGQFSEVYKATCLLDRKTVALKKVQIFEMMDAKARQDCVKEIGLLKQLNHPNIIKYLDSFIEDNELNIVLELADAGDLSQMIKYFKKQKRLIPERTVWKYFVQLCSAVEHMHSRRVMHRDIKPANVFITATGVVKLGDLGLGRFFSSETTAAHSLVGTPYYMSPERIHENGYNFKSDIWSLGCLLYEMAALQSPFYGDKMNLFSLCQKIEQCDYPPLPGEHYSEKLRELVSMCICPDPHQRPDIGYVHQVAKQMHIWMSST
Chain of UniProt P57059 (whole entry, looked up): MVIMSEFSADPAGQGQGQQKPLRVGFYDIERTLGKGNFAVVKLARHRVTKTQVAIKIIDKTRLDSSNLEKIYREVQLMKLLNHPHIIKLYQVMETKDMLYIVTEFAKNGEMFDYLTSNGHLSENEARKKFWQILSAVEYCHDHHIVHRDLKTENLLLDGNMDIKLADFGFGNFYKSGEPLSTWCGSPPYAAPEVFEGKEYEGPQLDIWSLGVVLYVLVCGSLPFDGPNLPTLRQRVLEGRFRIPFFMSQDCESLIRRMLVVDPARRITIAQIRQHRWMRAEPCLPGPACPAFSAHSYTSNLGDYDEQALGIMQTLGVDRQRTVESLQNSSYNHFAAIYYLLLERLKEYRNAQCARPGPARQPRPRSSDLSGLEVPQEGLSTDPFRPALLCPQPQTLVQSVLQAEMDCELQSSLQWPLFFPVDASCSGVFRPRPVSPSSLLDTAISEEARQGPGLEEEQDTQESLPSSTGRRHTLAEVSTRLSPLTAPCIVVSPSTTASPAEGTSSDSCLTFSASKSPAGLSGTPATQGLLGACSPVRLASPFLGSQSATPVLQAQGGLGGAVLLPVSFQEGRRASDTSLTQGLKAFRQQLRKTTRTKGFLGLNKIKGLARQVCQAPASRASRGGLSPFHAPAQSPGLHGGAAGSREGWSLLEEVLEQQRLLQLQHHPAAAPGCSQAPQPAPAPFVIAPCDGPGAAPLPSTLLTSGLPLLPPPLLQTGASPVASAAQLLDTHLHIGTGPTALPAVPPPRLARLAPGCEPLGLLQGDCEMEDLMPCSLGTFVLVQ
Chain of UniProt Q06187 (whole entry, looked up): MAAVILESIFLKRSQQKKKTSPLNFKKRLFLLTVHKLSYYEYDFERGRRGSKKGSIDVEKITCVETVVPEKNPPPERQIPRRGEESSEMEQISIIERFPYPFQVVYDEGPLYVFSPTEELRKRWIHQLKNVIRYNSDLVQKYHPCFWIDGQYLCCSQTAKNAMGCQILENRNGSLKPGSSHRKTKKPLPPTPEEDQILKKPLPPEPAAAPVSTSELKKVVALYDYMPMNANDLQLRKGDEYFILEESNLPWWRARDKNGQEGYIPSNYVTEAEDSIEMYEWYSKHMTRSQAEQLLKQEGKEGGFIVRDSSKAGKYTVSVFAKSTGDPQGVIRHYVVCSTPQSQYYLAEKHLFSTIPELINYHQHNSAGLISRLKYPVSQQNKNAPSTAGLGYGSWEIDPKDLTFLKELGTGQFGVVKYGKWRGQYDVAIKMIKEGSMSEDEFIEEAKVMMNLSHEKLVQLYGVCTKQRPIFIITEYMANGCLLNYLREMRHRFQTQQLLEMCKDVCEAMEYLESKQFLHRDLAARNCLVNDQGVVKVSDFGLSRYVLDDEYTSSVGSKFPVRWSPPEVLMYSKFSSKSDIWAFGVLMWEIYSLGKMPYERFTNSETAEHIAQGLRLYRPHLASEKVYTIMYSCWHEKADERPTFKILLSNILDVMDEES

Set 1 — read-out: enzyme activity; mode: inhibitor; tested at: 0.5 µM; relative to: control; endpoint: remaining activity
Target: Insulin receptor-related protein (INSRR, Homo sapiens, UniProt P14616)
Chain of UniProt P14616 (whole entry, looked up): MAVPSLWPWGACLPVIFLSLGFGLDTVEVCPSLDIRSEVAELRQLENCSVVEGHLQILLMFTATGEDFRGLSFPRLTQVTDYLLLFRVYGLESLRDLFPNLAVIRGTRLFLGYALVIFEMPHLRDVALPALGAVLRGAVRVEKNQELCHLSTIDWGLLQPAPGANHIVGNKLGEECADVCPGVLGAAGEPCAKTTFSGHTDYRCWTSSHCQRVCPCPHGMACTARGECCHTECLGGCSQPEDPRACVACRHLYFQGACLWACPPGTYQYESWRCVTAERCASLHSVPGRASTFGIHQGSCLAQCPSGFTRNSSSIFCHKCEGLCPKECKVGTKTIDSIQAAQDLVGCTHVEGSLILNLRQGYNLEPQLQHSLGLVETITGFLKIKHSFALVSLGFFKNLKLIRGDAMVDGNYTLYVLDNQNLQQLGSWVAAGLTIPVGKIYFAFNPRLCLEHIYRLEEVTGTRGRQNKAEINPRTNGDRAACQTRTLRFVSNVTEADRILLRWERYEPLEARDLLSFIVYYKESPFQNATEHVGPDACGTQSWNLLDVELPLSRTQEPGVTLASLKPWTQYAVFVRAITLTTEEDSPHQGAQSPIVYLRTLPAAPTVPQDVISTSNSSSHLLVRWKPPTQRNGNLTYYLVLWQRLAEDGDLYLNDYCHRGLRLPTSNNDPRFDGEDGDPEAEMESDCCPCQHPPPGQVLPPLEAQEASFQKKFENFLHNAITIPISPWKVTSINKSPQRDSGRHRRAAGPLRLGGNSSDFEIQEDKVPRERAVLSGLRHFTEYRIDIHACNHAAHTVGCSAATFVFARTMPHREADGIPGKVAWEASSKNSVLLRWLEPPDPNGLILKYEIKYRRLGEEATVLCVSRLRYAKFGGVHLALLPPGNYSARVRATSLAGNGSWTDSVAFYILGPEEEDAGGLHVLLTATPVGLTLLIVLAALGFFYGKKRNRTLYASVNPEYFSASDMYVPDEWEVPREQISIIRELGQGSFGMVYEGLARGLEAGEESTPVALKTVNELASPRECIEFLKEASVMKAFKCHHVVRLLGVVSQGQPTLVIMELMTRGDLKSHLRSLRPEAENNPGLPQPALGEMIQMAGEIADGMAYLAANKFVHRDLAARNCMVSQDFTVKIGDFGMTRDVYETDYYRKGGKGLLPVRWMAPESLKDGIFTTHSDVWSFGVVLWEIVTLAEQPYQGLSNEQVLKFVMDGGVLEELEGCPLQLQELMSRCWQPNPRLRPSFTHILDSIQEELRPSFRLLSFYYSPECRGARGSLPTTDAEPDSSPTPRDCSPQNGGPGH
Cn1sc(=O)n(Cc2ccccc2)c1=O: 99.3%
C#Cc1cccc(Nc2ncnc3cc(OCCOC)c(OCCOC)cc23)c1: 110%
CCOC(=O)c1c(C)[nH]c(/C=C2\C(=O)Nc3ccccc32)c1C: 93.8%
CN(C)c1ccc(C=C2C(=O)Nc3ccccc32)cc1: 94.5%
Cc1cccc(-c2[nH]c(C(C)(C)C)nc2-c2ccc3c(c2)OCO3)n1: 95.1%
COc1cc2ncnc(Nc3ccc(F)c(Cl)c3)c2cc1OCCCN1CCOCC1: 112%
COc1cc2ncnc(Nc3ccc(Oc4ccccc4)cc3)c2cc1OC: 102%
CNC(=O)c1cc(Oc2ccc(NC(=O)Nc3ccc(Cl)c(C(F)(F)F)c3)cc2)ccn1: 104%
CO[C@H]1C[C@@H]2CC[C@@H](C)[C@@](O)(O2)C(=O)C(=O)N2CCCC[C@H]2C(=O)O[C@H]([C@H](C)C[C@@H]2CC[C@@H](O)[C@H](OC)C2)CC(=O)[C@H](C)/C=C(\C)[C@@H](O)[C@@H](OC)C(=O)[C@H](C)C[C@H](C)/C=C/C=C/C=C/1C: 102%
COc1ccc(C(=O)Nc2sc3c(c2C(N)=O)CCCC3)cc1OC: 99.7%
COc1cc2nccc(Oc3ccc(NC(=S)NC(=O)c4ccccc4C)cc3)c2cc1OC: 98.2%

Set 2 — tested at: 1 µM; endpoint: remaining binding
SMILES: CCS(=O)(=O)c1cc2cc(C[C@@](O)(CC(C)(C)c3ccc(F)cc3C(N)=O)C(F)(F)F)[nH]c2cn1
Cyclin-dependent kinase 19 (CDK19, Homo sapiens, UniProt Q9BWU1); competition binding: 100%
Tyrosine-protein kinase BTK (BTK, Homo sapiens, UniProt Q06187); cell-free assay, competition with immobilised ligand: 100%
Serine/threonine-protein kinase PAK 4 (PAK4, Homo sapiens, UniProt O96013); cell-free assay, competition with immobilised ligand: 88%
Serine/threonine-protein kinase SIK1 (SIK1, Homo sapiens, UniProt P57059); competition binding: 100%
Megakaryocyte-associated tyrosine-protein kinase (MATK, Homo sapiens, UniProt P42679); cell-free assay, competition with immobilised ligand: 100%
Serine/threonine-protein kinase Nek6 (NEK6, Homo sapiens, UniProt Q9HC98); cell-free assay, competition with immobilised ligand: 100%

Set 3 — method: protein-binding microarray; form: double-stranded DNA, one strand shown; sample: in vitro; tested at: not given; reading: higher = stronger binding; endpoint: E-score
Target: Protein C-ets-1 (ETS1, Homo sapiens, UniProt P14921, residues 1-441, Y397A, full length assumed)
Notes: k-mer, scored over probes, only values ≥0.25
Construct (chain): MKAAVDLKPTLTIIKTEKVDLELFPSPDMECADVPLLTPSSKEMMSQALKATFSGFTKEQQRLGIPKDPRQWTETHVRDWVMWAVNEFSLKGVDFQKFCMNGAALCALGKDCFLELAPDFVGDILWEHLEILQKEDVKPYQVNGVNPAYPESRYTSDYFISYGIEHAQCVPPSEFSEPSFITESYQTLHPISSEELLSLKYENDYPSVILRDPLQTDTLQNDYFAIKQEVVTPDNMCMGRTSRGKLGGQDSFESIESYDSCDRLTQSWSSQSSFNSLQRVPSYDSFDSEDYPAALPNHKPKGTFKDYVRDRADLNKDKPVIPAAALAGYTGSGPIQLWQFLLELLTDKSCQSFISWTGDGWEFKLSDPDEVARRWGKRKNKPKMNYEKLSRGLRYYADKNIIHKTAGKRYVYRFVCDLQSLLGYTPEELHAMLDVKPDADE
CGTGACAA: 0.315
CGACGAAA: 0.277
GGGTGCAA: 0.289
AAATGTCA: 0.319
AACAGCAA: 0.279
GGTGGGGA: 0.409
TGTGCCAA: 0.32
CTGGCAAA: 0.312

Set 4 — method: DHFR PCA, deep sequencing; sample: yeast; with: (+)-ABA 0 µM; relative to: wild-type fitted maximum; reading: higher = stronger binding; endpoint: relative binding score
Target: ABI1, truncated, D143A, DHFR fusion (Arabidopsis thaliana)
Notes: methotrexate growth selection, single substitutions
Parent: PYL1, truncated, DHFR fusion (Arabidopsis thaliana); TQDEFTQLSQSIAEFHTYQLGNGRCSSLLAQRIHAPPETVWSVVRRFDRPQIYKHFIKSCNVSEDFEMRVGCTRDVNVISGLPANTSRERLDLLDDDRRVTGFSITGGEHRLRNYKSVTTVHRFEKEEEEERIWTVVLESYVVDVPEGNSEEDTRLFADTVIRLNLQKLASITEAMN
T86G: 0.705%
I172C: 1.27%
R113V: 28.7%
I172K: 1.93%
I162R: 7.93%
E152P: -7.01%
T173V: 9.11%
R69M: 7.06%

Excerpt of the above (set 1):
COc1cc2ncnc(Nc3ccc(F)c(Cl)c3)c2cc1OCCCN1CCOCC1: 112%
COc1cc2ncnc(Nc3ccc(Oc4ccccc4)cc3)c2cc1OC: 102%
CNC(=O)c1cc(Oc2ccc(NC(=O)Nc3ccc(Cl)c(C(F)(F)F)c3)cc2)ccn1: 104%
CO[C@H]1C[C@@H]2CC[C@@H](C)[C@@](O)(O2)C(=O)C(=O)N2CCCC[C@H]2C(=O)O[C@H]([C@H](C)C[C@@H]2CC[C@@H](O)[C@H](OC)C2)CC(=O)[C@H](C)/C=C(\C)[C@@H](O)[C@@H](OC)C(=O)[C@H](C)C[C@H](C)/C=C/C=C/C=C/1C: 102%
COc1ccc(C(=O)Nc2sc3c(c2C(N)=O)CCCC3)cc1OC: 99.7%
